Measurements collected from several papers.
Each numbered part is a random draw from the data of one study; scales do not carry over between parts.

Set 1
Target: RNA binding protein fox-1 homolog 2, RRM domain, GST-SBP tag (RBFOX2, Homo sapiens, UniProt O43251-10, residues 100-194)
Technique: RNA Bind-n-Seq
Molecule type: RNA
Sample: in vitro
Concentration: 365 nM
Setting: natural RNA segment, single round, ends assumed
Reference: no-protein control
Direction: higher = stronger binding
Endpoint: RBNS enrichment (R)
Constant ends, left off below: GGGAGUUCUACAGUCCGACGAUC … UGGAAUUCUCGGGUGCCAA
Construct (chain): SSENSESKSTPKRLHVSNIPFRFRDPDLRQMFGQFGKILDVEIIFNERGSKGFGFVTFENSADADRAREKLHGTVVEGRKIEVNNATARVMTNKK
AAGGUGGCAGGGCUGUGAUGGCCCUUCCUACACACCUGGACUCUGCCUACCCACUCCAGGACUCUCUCCCUCCCCCCAACCCCAUCCCCAUCUCUGAGCUAUGGGGCAAU: 0.343
UCAAGUCUGCGAGGCUAGGCACUUCCUCUCCCACGAAGGCCAGACAAGAAGGCCCAGCUAGAAGAACAUAUCCCACACACAGGCAACAGCUUUUGGGAUAGCCCCCGCUC: 0.287
GUCUCUCUCAUUCUCUCUUCACCUGCCAUAGCAAAGAAACAUCCCAGAAUCGACCCUUCUCCCAUUGAUCCAUGUCUCCCGUGUCACCAUGGGCAUGGCAUGUGAAGCAA: 0.519
UUGACCUGGUCCCCCACGUGUGAAGUGUAGUGGCAUCCAUUUCUAAUGUAUGCAUUCAUCCAACAGAGUUAUUUAUUGGCUGGAGAUGGAAAAUCACACCACCUGACAGG: 0.489
UUUAAUUACUGCUGUAUAUUUGUUGAUUUUGGAGUUACAACUGUGGUGAUAGAAAAUUGAGUUGAUGGUCUGUACCAAGUCCCUUGUCUAUGUUCUUGUCUUUCAGAAUA: 2.65
CCCGCAGUGUGCGGUUCGUGCCCUUAACCACCCGCUUCUUUGUUUCCCGCCCCUCUGCUUUCGCAGGAGCUCUUGUGCUUGAGUUCAGUGUUAGUGGUAGCGUGGCUCAC: 0.37
CUACCUUAGAUACUAGUUGUCUGAAUUGAGUUACUUUGAUAGGAAAAAUACUUCAUUACCUAAAAUCAUUUUUCAUAGAACUGUUUCAGAAAACCUGACUCUAACUGGUU: 0.535
GUACCUGAAACUAGGUCUGGGGCACUCCCAAUGCAGCGCCUUGUCAGCCAAGGUGGGCAGGCAGGGACUGUGGCAGCUUAUGUCCAAAGGGAGCCCCCAUGCACAGGAAG: 0.414
UAGUUUCACUGCUCAUAUACCAGCUGCUACAAGAAAAACCAUGACUUGUAAGUUUGUCUUUACUCCUAAUUGCUAAAUUAACUGAAACCCUUCCUGUCUAGGGAGAAUUG: 0.522
GCCCUCUGCCUCAGCCCCACUAGGGGAACAACAGGAGGCCUGCUGGGGCUUAGAGUCCGUGCAGGUGGGGAUAUGGGUAAAUCUAGGAGAACUCACAGAUCUUUAUAUGA: 0.484
GCAUGUGAGCACAUGCGUAUAUGUGCGUCUCUCUUUCUCCCUCACCCCCAGGUGUUGCCAUUUCUCUGCUUACCCUUCACCUUUGGUGCAGAGGUUUCUUGAAUAUCUGC: 0.5
UUAAACGUGCAUUUUUACUCAACUACCUCAGGUAUUCAGUAAUACAAUGAAAAGCAAAAUUGUUCCUUUUUUUUGAAAAUUUUAUAUACUUUAUAAUGAUAGAAGUCCAA: 0.666

Set 2
Target: Histone acetyltransferase KAT6A, both winged helices, GST fusion (KAT6A, Homo sapiens, UniProt Q92794, residues 1-181)
Technique: protein binding microarray
Molecule type: double-stranded DNA, one strand shown
Sample: in vitro
Concentration: not given
Setting: 8-mer, flanks averaged, mean of 2 arrays, mostly near background
Reference: not given
Direction: higher = stronger binding
Endpoint: E-score
Construct (chain): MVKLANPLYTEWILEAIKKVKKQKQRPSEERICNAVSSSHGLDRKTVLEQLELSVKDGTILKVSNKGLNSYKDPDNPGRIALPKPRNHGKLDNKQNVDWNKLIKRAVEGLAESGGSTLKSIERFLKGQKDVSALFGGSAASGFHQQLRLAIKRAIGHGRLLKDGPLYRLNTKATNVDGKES
CAGGCAAA: -0.0867
ACCACTCT: -0.196
GACGTCGC: 0.155
GTAGTGGA: -0.0665
GCTTCTAA: -0.166
GGTCACGA: -0.0877
CTGTCTAA: -0.132
ACATCCCG: 0.212
AATATTGA: -0.0442
AGTAGCCC: -0.0522
ATCTTTCC: -0.0105
AATCGCTA: 0.0825
AGCGCTTC: 0.293
ATAGAAAA: -0.124
AACCTTGG: -0.102
CTTACCAC: -0.189
GCGTTACA: 0.121
AGTGAGCG: 0.0407
TGTCTGAA: 0.00242
AATTCCCA: -0.31
AGGCTGTC: -0.0862
GTTTCCTA: -0.199

Set 3
Target: Interferon regulatory factor 3, full length, phosphomimetic (IRF3, Homo sapiens, UniProt Q14653, residues 1-427, S386D/S396D/S398D/S402D/T404D/S405D)
Chain of UniProt Q14653 (whole entry, unmodified, looked up): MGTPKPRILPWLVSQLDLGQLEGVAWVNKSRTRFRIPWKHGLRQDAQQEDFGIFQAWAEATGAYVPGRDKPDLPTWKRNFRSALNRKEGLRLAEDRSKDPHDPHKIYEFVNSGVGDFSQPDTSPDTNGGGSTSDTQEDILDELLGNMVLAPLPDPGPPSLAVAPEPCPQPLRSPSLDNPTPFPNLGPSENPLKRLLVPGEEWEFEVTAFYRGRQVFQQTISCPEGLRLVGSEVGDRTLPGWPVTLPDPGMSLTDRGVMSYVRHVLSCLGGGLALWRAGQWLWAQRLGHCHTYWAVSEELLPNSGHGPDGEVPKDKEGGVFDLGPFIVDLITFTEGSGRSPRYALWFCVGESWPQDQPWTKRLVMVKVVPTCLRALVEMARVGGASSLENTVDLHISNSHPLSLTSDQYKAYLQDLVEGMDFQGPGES
Technique: protein-binding microarray
Molecule type: double-stranded DNA, one strand shown
Sample: in vitro
Concentration: 2540 nM top
Setting: 60-bp whole probe
With: salmon DNA 0.4 mg/ml
Reference: random background probes
Direction: higher = stronger binding
Endpoint: fitted relative affinity
Constant ends, left off below: GCCTAGCAC … GTCTTGATTCGCTTGACGCTGCTG
TTAGCTATCGGTCTCGGTTAGTGCTAG: 1.55 z-score
GACGGTCCCCTTTTCCTGACGTGCTAG: 2.6 z-score
TTAGGTTTCGACTTTCGCTTAGTGCTA: 3.31 z-score
TTTTTTTTTTTTTTTTTACTGTGCTAG: 1.48 z-score
TACGGACTGCTTCTCCTGACGTGCTAG: -0.125 z-score
TTAGATTCCAGTTTCGGTTAGTGCTAG: 6.28 z-score
GACAGTTTCGGTTCCGGGACGTGCTAG: 11.2 z-score
TTTGGTCTCCTTCTCCTTTAGTGCTAG: 4.42 z-score
TCATTTGACTCTTTCTGACTGTGCTAG: 1.26 z-score
TTAGGACTGGACGCTGGGTTAGTGCTA: -0.939 z-score
TCATCTCCGGGGTCTGTGACTGTGCTA: 0.113 z-score
TTAGGTATCGACACTGGTTTAGTGCTA: 0.347 z-score
TTAGGACTTGGGACTGGGTTAGTGCTA: -1.17 z-score
GACGGTCTGCTTTTCCTGACGTGCTAG: 0.231 z-score
GACGATATCGGGTTCCGAGACGTGCTA: 0.46 z-score
GAAGGTCTCCTTATCCTGACGTGCTAG: 2.51 z-score
TTAGGACTGCTAATCCTTTAGTGCTAG: -0.498 z-score
TTAGGTTTCGGTATCGGTTCGTGCTAG: 9.37 z-score
CCAAGTTTATACCTTAGGTTGTGCTAG: 0.111 z-score
TCATTGGTTGAACATGAACTGTGCTAG: -0.322 z-score
GACGGTTTCGGTTCCGGAACGTGCTAG: 10.8 z-score
GACGATTCCAGTTGCGAGACGTGCTAG: 1.13 z-score

Set 4
Target: Sal-like protein 4, full length isoform B (SALL4, Homo sapiens, UniProt Q9UJQ4-2, residues 1-616)
Technique: universal PBM
Molecule type: double-stranded DNA, one strand shown
Sample: in vitro
Concentration: not given
Setting: 8-mer, flanks averaged, mean of replicates
Direction: higher = stronger binding
Endpoint: E-score
GGACTTTA: 0.138
ACTCGCGA: -0.0838
AAAAGTCG: 0.0315
ATATTCAA: 0.355
AGATGACA: 0.00744
CCTCTGAA: -0.166
AAACGGCA: -0.0197
AGGGCGCC: -0.28
AGATGATC: 0.0649
CTCTATTA: 0.218
CTCCTTGC: -0.13
CCTGGAAA: 0.00999
ACGAAATC: 0.0224
ATTAGTAG: 0.236
AACAACTC: -0.0199
GGGGCGCA: -0.287

Set 5
Target: Phosphate system positive regulatory protein PHO4, full length, GST-tagged (PHO4, Saccharomyces cerevisiae, UniProt P07270, residues 1-312)
Technique: competition protein-binding microarray
Molecule type: double-stranded DNA, one strand shown
Sample: in vitro
Concentration: 2 µM
Setting: whole 60-bp probe, lowest competitor level
With: Cbf1 competitor, 0.05 µM
Direction: higher = stronger binding
Endpoint: fluorescence intensity
Constant ends, left off below: … GTCTTGATTCGCTTGACGCTGCTG
Residues (chain): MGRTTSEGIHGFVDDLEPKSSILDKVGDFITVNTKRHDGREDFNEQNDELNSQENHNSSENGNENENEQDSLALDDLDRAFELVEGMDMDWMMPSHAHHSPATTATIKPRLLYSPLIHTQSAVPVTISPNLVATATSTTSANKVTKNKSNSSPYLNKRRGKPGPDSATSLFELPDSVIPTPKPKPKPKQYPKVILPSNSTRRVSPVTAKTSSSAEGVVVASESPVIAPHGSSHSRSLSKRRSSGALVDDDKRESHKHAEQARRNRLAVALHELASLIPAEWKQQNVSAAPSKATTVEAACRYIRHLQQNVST
CGTCCTAGTGATTGTCTGGTGGGTGCCATGAGGAAG: 6150 a.u.
AAAGCGGTAATTTGTCACCAGACTTCACATATCTAT: 3610 a.u.
AAAGCGGTAATTTGCCAAGTGGGTGCAGATATCTAT: 3720 a.u.
CGAATCCGGAAAAACTACGTGACGGGAACGATGACC: 5700 a.u.
GTCAGAGTCGTTGTTCTCGTGCTTTTCCGTAGCCTC: 8370 a.u.
AAAGCGGTAATTTGCGCCGTGGGTGCAGATATCTAT: 5330 a.u.
CTTCTGTAAATTTGTGATGTGGGTGGACGCGCCCCG: 4890 a.u.
GTCTTGTCTCATTGTCACTCAACTTTCCCCACTTCA: 3950 a.u.
CTAACGAAGGTTTGCTTGGTGGGTGACAAGCCAAGT: 3470 a.u.
AAATTACTAAGTTGCTACGTGGGTGACGCCGTATGA: 7280 a.u.
TTGAAATGGCCAATCACCGTGCCAGGCTTGCAAGTC: 5810 a.u.
TGTATGAGAGTGGTCGATTTCAATCGGCAACATTCT: 3500 a.u.
GTCTTGTCTCATTGTACCGTGGGTGTCCCCACTTCA: 7460 a.u.
CTACGGAAAAGGCCACACTTTTTTTCTGCAAGAAAA: 4430 a.u.
AAAGGGCGAAGTTACACCGTTTTCAAAGGTGGAGTG: 3980 a.u.
AAAAAATGTGAATTGCACATGCCCAGCGCGCTCGCA: 9210 a.u.
GGGATTCCTCTCTGGCGTGTGATGTCTGTATCTGTT: 5340 a.u.
CAAGGATTCCTAATTCACGTGCAAAAGCAACCGGAT: 13200 a.u.
CTAACGAAGGTTTGCTGCGTGGGTGACAAGCCAAGT: 8340 a.u.
GCTATTCGTTTTATAAATGAAGTTCTTTCCACAAGT: 4050 a.u.
GTAGCTACATTGCCGTGCGTGGCAACAACCTAATTA: 7430 a.u.
GAAGGAGTGAGGGACCCCGTGGGTACCGAACCCCGA: 10300 a.u.
CGGGGTTAAGTTTTTCACGTGTTCTGCTTGCAGCAG: 12000 a.u.
AAAGCGGTAATTTGTGATGTGGGTGCAGATATCTAT: 4790 a.u.
TAGCTAAAAACGAGTCACGTGATGGATATTCGAAAG: 14500 a.u.
